Experimental data from different studies.
A part holds a random share of what one study measured. Substitutions count along the parent as printed.

Series 1
Target: RNA binding protein fox-1 homolog 2, RRM domain, GST-SBP tag (RBFOX2, Homo sapiens, UniProt O43251-10, residues 100-194)
Method: RNA Bind-n-Seq
Molecule type: RNA
Sample: in vitro
Tested at: 365 nM
Setting: natural RNA segment, single round, ends assumed
Reference: no-protein control
Direction: higher = stronger binding
For `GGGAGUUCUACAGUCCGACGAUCGACAAGAAAUCCUAGUGGCCUCCCAGACUGCAGGGUCCCCAAGGAUGGAAAGGGAAUGUUCUGCUGGUUCUACCCUGUUUGUUGUGUCUUGCUAUACAGAAAAACCACAUUGGAAUUCUCGGGUGCCAA`, “RBNS enrichment (R)” read 3.02.
Under “RBNS enrichment (R)”, `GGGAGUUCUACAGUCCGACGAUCCGCUUCUGCUUUCACCAAGAGAGUGUUUCUUCACUCAACUCAGGUGGCAUUUGGGGUGACAUCUCAAAGGCCAGGAAUUCCGUUGACUUGUUGGCUGCCAGUAGGGGCGGUGGAAUUCUCGGGUGCCAA` is recorded as 0.899.
For `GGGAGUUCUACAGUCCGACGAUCGAGUUGGCAAGCUUAACAAAACCCAUUUUUUAUAAAUGUCCAUCCUCCUGCAUUUGUUGAUACCACUAACAAAAUGCUUUGUAACAGACUUGCGGUUAAUUAUGCAAAUGUGGAAUUCUCGGGUGCCAA`, “RBNS enrichment (R)” read 0.406.
Under “RBNS enrichment (R)”, `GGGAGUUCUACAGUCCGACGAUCAGAAAUCUAUAGAAAGUGUUCUGUUACAAAAUGUAACUGUUACCAUUGGAAAUUUCACGUCAUAGGAAGUUAGCCUUUAUCUACCAACUUUCAAGAACUUGUUUAAUAAAUGGAAUUCUCGGGUGCCAA` is recorded as 0.382.
For `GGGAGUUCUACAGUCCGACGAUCCUUGCUAGACUCCCGUUUGUUCUAAGAGUCAGGCUUAUGUAUAGCAGCUUCUAGCUGGUUCUCUAUUAUCCUGGUAAUAUUGUUUCUCAGCUCUGAAAUUUGAAAGUCUAUGGAAUUCUCGGGUGCCAA`, “RBNS enrichment (R)” read 0.429.
`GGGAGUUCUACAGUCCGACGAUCUGGGCCACCAAGCUAGGCUAAGAAAGAGGUUUUAAUUGUGGUUUCUUUCCUGCAGUGCUGUCCCCAACCCCGUGUAGCUCUGUUAUUACCAUAGGGGACUUGGUUUUGGAUGGAAUUCUCGGGUGCCAA`: “RBNS enrichment (R)” 0.534.
`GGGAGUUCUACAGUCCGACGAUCUUGGCUGGGAGGCCGCGGGAGGGAGGCCAGGAGGCCCGGACCAGUUGGGAGGAGUGAGCAGGCCCCGGGGGAGGGGGAUGAGCGCAGUUUGCUCGCUUUCCUCCCCUGCCUGGAAUUCUCGGGUGCCAA`: “RBNS enrichment (R)” 0.734.

Series 2
Target: Interferon regulatory factor 5, full length, phosphomimetic (IRF5, Homo sapiens, UniProt Q13568-2, residues 1-514, S451D/S453D/S456D/S462D)
Method: protein-binding microarray
Molecule type: double-stranded DNA, one strand shown
Sample: in vitro
Tested at: 940 nM top
Setting: 60-bp whole probe
Added: salmon DNA 0.4 mg/ml
Reference: random background probes
Direction: higher = stronger binding
Constant ends, left off below: GCCTAGCAC … GTCTTGATTCGCTTGACGCTGCTG
For `TTAGGATTCGGGTTTCGGTTAGTGCTA`, “fitted relative affinity” read 6.21 z-score.
`CAGATTTGGCATATCTATTTGTGCTAG` — result for “fitted relative affinity”: -0.0185 z-score.
For `TCACTTTCAGTTTTCCTACTGTGCTAG`, “fitted relative affinity” read 4.42 z-score.
Under “fitted relative affinity”, `TTAGGTTCTGGTTTCGGTTAGTGCTAG` is recorded as 8.83 z-score.
`TTAGATATCGGGTTTAGATTAGTGCTA`: “fitted relative affinity” 0.469 z-score.
For `GACGGACTGCTTTTCCTGAGGTGCTAG`, “fitted relative affinity” read -0.336 z-score.
`TCAGGTCTCGGTCTCGGTTAGTGCTAG`: “fitted relative affinity” 5.13 z-score.
`GACGGTTTCCTTATCCTTACGTGCTAG` — result for “fitted relative affinity”: 1.58 z-score.
`TTAGATATCAGACTGGATGAGTGCTAG`: “fitted relative affinity” -0.365 z-score.

Series 3
Target: CCNB3, cyclin fold, Cln2 fusion (human)
Method: yeast growth competition, sequencing
Sample: yeast
Setting: weak parent motif
Reference: not given
Direction: higher = stronger binding
Starting sequence: PKN2 docking peptide (human); VSAVQKLDFSDTM
`VSAWQKLDFSDTM [V4W]`: “normalised enrichment score” 0.226.
Under “normalised enrichment score”, `VSAVQKLDQSDTM [F9Q]` is recorded as 0.228.
Under “normalised enrichment score”, `DSAVQKLDFSDTM [V1D]` is recorded as -0.236.
`VSAEQKLDFSDTM [V4E]` — result for “normalised enrichment score”: 0.326.
`VSAVQKLNFSDTM [D8N]` — result for “normalised enrichment score”: -0.0392.
`VSAVQKLDFKDTM [S10K]`: “normalised enrichment score” 0.269.
`VSAPQKLDFSDTM [V4P]`: “normalised enrichment score” 0.351.

Further values, each from its own experiment
`PhoQ, residues 284 288 289 292 302 303 SLANIV` has a fold induction of 7.93 (PhoP, residues 12 14 15 18 19 SMASL (Escherichia coli, UniProt P23836); Sort-seq, item: YFP reporter; E. coli; PhoQ-PhoP variant library, added: 10 µM Mg2+; reference: high Mg2+ state, higher = stronger signaling).
